Values quoted from earlier work as cited in several papers.
Each numbered part shows a few of the values that one paper quotes.

Block 1 — Substance: buforin II
organism | strain | setting | MIC [µM]
Acinetobacter baumannii | ATCC 19606 | literature value | 50
Escherichia coli | ATCC 25922 | literature value | 12.5
Enterobacter sp. | KCTC 2625 |  | 50
Klebsiella pneumoniae | ATCC 700603 | literature value | > 100
Enterococcus faecalis | KCTC 3511 | literature value | 50

Further values, each from its own experiment
B1: CX3CL1, human; sequence looked up; chain QHHGVTKCNITCSKMTSKIPVALLIHYQQNQASCGKRAIILETRQHRLFCADPKEQWVKDAMQHLDRQAAALTRNGGTFEKQIGEVKPRTTPAAGGMDESVVLEPEATGESSSLEPTPSSQEAQRALGTSPELPTGVTGSSGTRLPPTPKAQDGGPVGTELFRVPPVSTAATWQSSAPHQPGPSLWAEAKTSEAPSTQDPSTQASTASSPAPEENAPSEGQRVWGQGQSPRPENSLEREEMGPVPAHTDAFQDWGPGSMAHVSVVPVSSEGTPSREPVASGSWTPKAEEPIHATMDPQRLGVLITPVPDAQAATRRQAVGLLAFLGLLFCLGVAMFTYQSLQGCPRKMAGEMAEGLRYIPRSCGSNSYVLVPV
B2: CCL4; sequence looked up; chain APMGSDPPTACCFSYTARKLPRNFVVDYYETSSLCSQPAVVFQTKRSKQVCADPSESWVQEYVYDLELN
Substance | tested on | test | system | conditions | endpoint | result
B1 (CX3CL1, human) | US28 F14A | binding, radioligand competition |  |  | Kd | 0.5 nM
ecgonine | monoclonal antibody | binding |  | room temperature | Kd | 10000 to 100000 nM
CCL3 | US28 T11A | binding, radioligand competition |  |  | Kd | 3 nM
Polymyxin B |  |  | mouse | dosed every 8 h | maximum tolerated dose | 25 mg/kg
B2 (CCL4) | US28 D15A | binding, radioligand competition |  |  | Kd | 1.9 nM
CCL5 | US28 F14A | binding, radioligand competition |  |  | Kd | 5.7 nM

For quick reference, copied from above (further values, each from its own experiment):
Substance | tested on | test | system | conditions | endpoint | result
Polymyxin B |  |  | mouse | dosed every 8 h | maximum tolerated dose | 25 mg/kg
